Earlier results, collected from citations in different studies.
Protocols differ between the studies behind these lines. ± marks the error that the study gave. Non-standard residues stand in square brackets, D forms with d. No end group written: not given here. [ ]: non-standard residue; d: D form.
B1: CCL1; sequence looked up; chain KSMQVPFSRCCFSFAEQEIPLRAILCYRNTSSICSNEGLIFKLKRGKEACALDTVGWVQRHRKMLRHCPSKRK
Sequence of UniProt P04692 (whole entry, looked up): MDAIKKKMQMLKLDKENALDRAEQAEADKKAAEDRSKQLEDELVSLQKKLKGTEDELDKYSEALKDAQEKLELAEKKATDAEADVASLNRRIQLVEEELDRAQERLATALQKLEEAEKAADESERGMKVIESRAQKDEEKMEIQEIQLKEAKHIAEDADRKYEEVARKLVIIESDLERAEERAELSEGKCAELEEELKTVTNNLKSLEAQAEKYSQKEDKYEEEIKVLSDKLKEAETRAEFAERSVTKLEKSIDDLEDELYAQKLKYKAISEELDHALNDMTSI

| Substance | tested on | assay | test system | conditions | how to read | endpoint | result |
| --- | --- | --- | --- | --- | --- | --- | --- |
| pegcetacoplan | Complement C3 (Homo sapiens, UniProt P01024) |  | human subjects | subcutaneous, 1440 mg single dose | relative to: placebo | serum level increase | ~100% |
| KQKTLKKVWKLSEKVLIFASAFAKKAGAAEATLVL | Bacillus subtilis |  | peptide, ATCC 23857 |  |  | MIC | 45 µM |
| STFGYRRGLSKYESIDEDELLASLSAEELKELERELEDIE (Lmod2(2-41); sequence looked up) | Tropomyosin alpha-1 chain (Tpm1, Rattus norvegicus, UniProt P04692) | CD thermal unfolding | peptide |  | complex | melting temperature | 36.4 ± 0.1 °C |
| H-[Orn][Orn]WW-NH2 (ornithine, C-amide; Orn = NCCC[C@H](N)C(=O)O) | Zygosaccharomyces bailii |  |  |  |  | growth inhibitory concentration | 12.5 µM |
| indirubin-3'-monoxime | HUVEC | cell migration |  |  |  | IC50 | > 30 µM |
| R[dW][dF]I[dF]H-NH2 (Arg-D-Trp-D-Phe-Ile-D-Phe-His-NH2) | Candida albicans |  |  |  |  | IC50 | 6.8 µM |
| Nisin | Acanthamoeba castellanii |  | trophozoites | 24 h |  | IC50 | 4500 µg/mL |
| nosiheptide | Staphylococcus aureus |  | MRSA, various strains | range |  | MIC | 0.03 to 0.125 µg/mL |
| MWIWKKPRWKGRRLKKKEEKEELGDYIYLYCKVKVRLFGFLPYFISKTA | Bacillus subtilis |  | peptide |  |  | MIC | 6.3 µM |
| B1 (CCL1) | CCR8 Y113A mutant | IP accumulation, agonist |  |  |  | EC50 | 0.323 µM |
| RGTCYNRVGLIIRNFSKLKGKKV | Staphylococcus aureus |  | peptide, ATCC 6538 |  |  | MIC | 17 µM |
| colistin sulfate | Staphylococcus aureus |  |  |  |  | MIC | 1 µg/mL |
| teicoplanin |  |  | healthy human subjects | dose not given |  | volume of distribution steady-state | 0.56 L/kg |
| colistin | Escherichia coli |  |  |  |  | MIC | 0.2 µg/mL |
| heparin | Plasmodium falciparum | erythrocyte invasion | merozoites |  |  | IC50 | 11 µg/mL |
| capreomycin | Mycolicibacterium smegmatis |  | mc2155 | literature value |  | MIC | 0.25 µg/mL |
| sodium rutin sulfate | herpes simplex virus | viral replication |  |  |  | IC50 | 88.3 µM |
| ifinatamab deruxtecan |  |  | patients with advanced solid tumours | dose not given, ESCC cohort |  | objective response rate | 23% |

For quick reference, copied from above:
| Substance | tested on | assay | test system | conditions | how to read | endpoint | result |
| --- | --- | --- | --- | --- | --- | --- | --- |
| R[dW][dF]I[dF]H-NH2 (Arg-D-Trp-D-Phe-Ile-D-Phe-His-NH2) | Candida albicans |  |  |  |  | IC50 | 6.8 µM |
